Experimental data collected from several papers.
Lines come from different studies, so protocols differ. ± marks the error that the study gave.

Substance | organism | test | system | setting | MIC
Cc1ccc(OCc2n(CC(=O)OC3CC(C)CCC3C(C)C)c3ccccc3[n+]2C)cc1 (stereo not shown) | Mycobacteroides abscessus | microbial growth |  |  | 25.6 µM
LSTFFRLFNGRRRRSVQWCA | Streptococcus mutans | broth microdilution | peptide, UA159 | planktonic, anaerobic | 10.7 ± 4 µg/mL
zinc borate | Serratia marcescens | broth macrodilution | clinical isolate | 9%, together with: boric acid | 4.5%
O=C(N/N=C/c1ccccc1)c1cc([N+](=O)[O-])cc([N+](=O)[O-])c1 | Staphylococcus aureus, Bacillus subtilis, Escherichia coli | bacterial growth |  | 24 h | 39.8 µM
COc1ccc(OCc2n(CC(=O)OC3CC(C)CCC3C(C)C)c3ccccc3[n+]2C)cc1 (stereo not shown) | Mycolicibacterium smegmatis | microbial growth |  |  | 5 µM
LSTFFRLFNRSFTQGRRRRSVQWCA | Streptococcus mutans | broth microdilution | peptide, UA159 | planktonic, anaerobic | 10.7 ± 4 µg/mL
CC(C)C[C@H](NC(=O)[C@H](CCCNC(=N)N)NC(=O)[C@H](CC(C)C)NC(=O)[C@@H](NC(=O)[C@H](CC(C)C)NC(=O)[C@H](Cc1c[nH]cn1)NC(=O)[C@H](CC(C)C)NC(=O)[C@@H](NC(=O)[C@H](C)N)[C@@H](C)O)C(C)C)C(=O)N[C@@H](CCCNC(=N)N)C(=O)NCC(=O)NCC(=O)O | Mycolicibacterium smegmatis |  | mc2 155 | 37 °C, ≥90% viability decrease | 25 µM
N=C(N)NCCC[C@H](N)C(=O)N[C@@H](Cc1c[nH]c2ccccc12)C(=O)N[C@@H](Cc1c[nH]c2ccccc12)C(=O)N[C@@H](CCCCN)C(=O)N[C@@H](CCCCN)C(=O)N[C@@H](Cc1c[nH]c2ccccc12)C(=O)N[C@@H](Cc1c[nH]c2ccccc12)C(=O)NCC(=O)N[C@@H](CCCCN)C(N)=O | Staphylococcus epidermidis | broth microdilution | 1457, Mueller-Hinton broth | overnight, 37 °C | 16 µM
magainin 2 | Streptococcus mutans | serial dilution | ATCC 25175 | 24 h, 37 °C | 62.4 ± 2.8 µg/mL
CC1CCC(C(C)C)C(OC(=O)Cn2c[n+](CC(=O)OC3CC(C)CCC3C(C)C)c3ccccc32)C1 (stereo not shown) | Mycobacteroides abscessus | microbial growth |  |  | 61.4 µM
CC[C@H](C)[C@H](NC(=O)[C@H](CCCCN)NC(=O)CNC(=O)[C@H](CC(C)C)NC(=O)[C@H](CC(C)C)NC(=O)[C@H](CCCCN)NC(=O)[C@H](Cc1ccccc1)NC(=O)[C@@H](N)CC(C)C)C(=O)N[C@H](C(=O)N[C@@H](Cc1c[nH]cn1)C(=O)N[C@@H](Cc1c[nH]cn1)C(=O)N[C@H](C(=O)NCC(=O)N[C@@H](CC(N)=O)C(=O)N[C@@H](Cc1ccccc1)C(=O)N[C@H](C(=O)N[C@@H](Cc1c[nH]cn1)C(=O)NCC(=O)N[C@@H](Cc1ccccc1)C(=O)N[C@@H](CO)C(=O)N[C@@H](Cc1c[nH]cn1)C(=O)N[C@H](C(=O)N[C@@H](Cc1ccccc1)C(N)=O)C(C)C)C(C)C)C(C)C)[C@@H](C)CC | Enterobacter cloacae | broth microdilution | AR 0136 | pH 7.4 | > 128 µM
CC(C)[C@H](NC(=O)[C@H](CO)NC(=O)[C@H](CCCNC(=N)N)NC(=O)[C@H](CCCNC(=N)N)NC(=O)[C@H](CCCNC(=N)N)NC(=O)[C@H](CCCNC(=N)N)NC(=O)CN)C(=O)N[C@@H](CCC(N)=O)C(=O)N[C@@H](Cc1c[nH]c2ccccc12)C(=O)N[C@@H](CS)C(=O)N[C@@H](C)C(=O)O | Streptococcus mutans | broth microdilution | GS-5 | 24 h, planktonic anaerobic | 48 ± 17.5 µg/mL
CC[C@H](C)[C@H](NC(=O)[C@@H]1CCCN1C(=O)[C@H](CCCCN)NC(=O)[C@@H]1CCCN1C(=O)[C@@H]1CCCN1C(=O)[C@@H](NC(=O)[C@@H]1CCCN1C(=O)[C@H](CCCNC(=N)N)NC(=O)[C@@H]1CCCN1C(=O)[C@H](CCCNC(=N)N)NC(=O)[C@H](Cc1ccc(O)cc1)NC(=O)[C@H](CO)NC(=O)CNC(=O)[C@H](CCCCN)NC(=O)[C@H](CC(=O)O)NC(=O)[C@@H](N)C(C)C)[C@@H](C)O)C(=O)N[C@@H](Cc1ccc(O)cc1)C(=O)N[C@@H](CC(N)=O)C(=O)N[C@@H](CCCNC(=N)N)C(=O)N[C@@H](CC(N)=O)C(=O)O | Salmonella enterica |  | serovar Tennessee | 18 h, 37 °C, 12.5% Mueller-Hinton broth | 0.075 ± 0.018 µM
O=C(NCc1ccc2c(c1)OCO2)c1ccc(Br)cc1F | Nakaseomyces glabratus | microbial growth | ATCC2001 | 72 h | 50 µM
NCC[C@H](O)C(=O)N[C@@H]1C[C@H](N)[C@@H](O[C@H]2O[C@H](CN)[C@@H](O)[C@H](O)[C@H]2O)[C@H](O)[C@H]1O[C@H]1O[C@H](CO)[C@@H](O)[C@H](N)[C@H]1O | Mycobacteroides abscessus |  | ATCC 19977 whiB7 MAB_2355 deleted | 120 h | 0.25 µg/mL
CN[C@H](CC(C)C)C(=O)N[C@H]1C(=O)N[C@@H](CC(N)=O)C(=O)N[C@H]2C(=O)N[C@H]3C(=O)N[C@H](C(=O)N[C@H](C(=O)O)c4cc(O)cc(O)c4-c4cc3ccc4O)[C@H](O)c3ccc(c(Cl)c3)Oc3cc2cc(c3O[C@@H]2O[C@H](CO)[C@@H](O)[C@H](O)[C@H]2O[C@H]2C[C@](C)(N)[C@H](O)[C@H](C)O2)Oc2ccc(cc2Cl)[C@H]1O | Enterococcus faecium |  | ATCC 700221 |  | > 50 µg/mL

Substance | organism | test | system | setting | MIC
O=C(O)c1cn(C2CC2)c2cc(N3CCNCC3)c(F)cc2c1=O | Staphylococcus aureus, Bacillus subtilis, Escherichia coli | bacterial growth |  | 24 h | 2.45 µM
CC[C@H](C)[C@H](NC(=O)[C@@H]1CCCN1C(=O)[C@H](CCCNC(=N)N)NC(=O)[C@@H]1CCCN1C(=O)[C@@H]1CCCN1C(=O)[C@@H](NC(=O)[C@@H]1CCCN1C(=O)[C@H](CCCNC(=N)N)NC(=O)[C@@H]1CCCN1C(=O)[C@H](CC(C)C)NC(=O)[C@H](Cc1ccc(O)cc1)NC(=O)[C@H](CO)NC(=O)CNC(=O)[C@H](CCCCN)NC(=O)[C@H](CC(=O)O)NC(=O)[C@@H](N)C(C)C)[C@@H](C)O)C(=O)N[C@@H](Cc1ccc(O)cc1)C(=O)N[C@@H](CC(N)=O)C(=O)N[C@@H](CCCNC(=N)N)C(=O)N[C@@H](CC(N)=O)C(=O)O | Salmonella enterica |  | serovar Newport | 18 h, 37 °C, 12.5% Mueller-Hinton broth | > 0.416 µM
CN[C@@H]1[C@H](O)[C@H](NC)[C@H]2O[C@@]3(O)C(=O)C[C@@H](C)O[C@H]3O[C@@H]2[C@H]1O | Mycobacteroides abscessus |  | ATCC 19977 whiB7 MAB_2355 deleted | 120 h | 32 to 64 µg/mL
COc1cc(OC)cc(C(=O)N/N=C/c2ccccc2)c1 | Aspergillus niger | microbial growth, broth dilution |  | 7 days | 21.9 µM
pneumocandin J | Candida parapsilosis | broth microdilution, resazurin | ATCC 90018 | 24 h, 35 °C | 25.6 µg/mL
Cc1ccc(C(=O)N/N=C/c2ccccc2)cc1 | Staphylococcus aureus, Bacillus subtilis, Escherichia coli | bacterial growth |  | 24 h | 52.5 µM
O=C(O)c1ccc(C(F)(F)F)cc1C(=O)c1ccc(Sc2ccc(Cl)c(Cl)c2)c([N+](=O)[O-])c1 | Staphylococcus epidermidis | microbial growth, broth dilution | ATCC12228 |  | 0.5 to 1 µg/mL
CCCCCCCCCCCCCC(=O)N/N=C/c1ccccc1Cl | Staphylococcus aureus, Bacillus subtilis, Escherichia coli | bacterial growth |  | 24 h | 33.9 µM
CC[C@H](C)[C@H](NC(=O)[C@@H]1CCCN1C(=O)[C@H](CCCCN)NC(=O)[C@@H]1CCCN1C(=O)[C@@H]1CCCN1C(=O)[C@@H](NC(=O)[C@@H]1CCCN1C(=O)[C@H](CCCNC(=N)N)NC(=O)[C@@H]1CCCN1C(=O)[C@H](CCCCN)NC(=O)[C@H](Cc1ccc(O)cc1)NC(=O)[C@H](CO)NC(=O)CNC(=O)[C@H](CCCCN)NC(=O)[C@H](CC(=O)O)NC(=O)[C@@H](N)C(C)C)[C@@H](C)O)C(=O)N[C@@H](Cc1ccc(O)cc1)C(=O)N[C@@H](CC(N)=O)C(=O)N[C@@H](CCCNC(=N)N)C(=O)N[C@@H](CC(N)=O)C(=O)O | Salmonella enterica |  | serovar Tennessee | 18 h, 37 °C, 12.5% Mueller-Hinton broth | 0.3 ± 0.07 µM
CN[C@H](CC(C)C)C(=O)N[C@H]1C(=O)N[C@@H](CC(N)=O)C(=O)N[C@H]2C(=O)N[C@H]3C(=O)N[C@H](C(=O)N[C@H](C(=O)O)c4cc(O)cc(O)c4-c4cc3ccc4O)[C@H](O)c3ccc(c(Cl)c3)Oc3cc2cc(c3O[C@@H]2O[C@H](CO)[C@@H](O)[C@H](O)[C@H]2O[C@H]2C[C@](C)(N)[C@H](O)[C@H](C)O2)Oc2ccc(cc2Cl)[C@H]1O | Enterococcus faecium |  | vancomycin-resistant ATCC 700221 | 20 h | 256 µg/mL
CC(C)C[C@H](NC(=O)[C@H](C)NC(=O)[C@H](CC(C)C)NC(=O)[C@@H](NC(=O)[C@@H](N)CO)[C@@H](C)O)C(=O)N[C@H](C(=O)N[C@@H](CC(C)C)C(=O)N[C@@H](CCCNC(=N)N)C(=O)N[C@@H](CC(C)C)C(=O)N[C@@H](CCCNC(=N)N)C(=O)NCC(=O)NCC(=O)O)C(C)C | Mycolicibacterium smegmatis |  | mc2 155 | 37 °C, ≥90% viability decrease | > 400 µM
actinomycin Y4 | Mycolicibacterium aurum | broth microdilution | ATCC 23366 | 16 to 48 h | > 9.32 µg/mL
CCCCCCCCCCCCCCCCCC(=O)N/N=C/c1ccccc1Cl | Staphylococcus aureus, Bacillus subtilis, Escherichia coli | bacterial growth |  | 24 h | 29.5 µM
COc1ccc(/N=N/C(C=O)=C(/O)c2cc3ccccc3o2)cc1 | Bacillus cereus | microbial growth, broth dilution | UW85 | 18 h | 256 µg/mL
STFFRLFNRSFTQGRRRRSVQWCA | Streptococcus mutans | broth microdilution | peptide, UA159 | planktonic, anaerobic | 10.7 ± 4 µg/mL

Excerpt of the above:
Substance | organism | test | system | setting | MIC
CC[C@H](C)[C@H](NC(=O)[C@H](CCCCN)NC(=O)CNC(=O)[C@H](CC(C)C)NC(=O)[C@H](CC(C)C)NC(=O)[C@H](CCCCN)NC(=O)[C@H](Cc1ccccc1)NC(=O)[C@@H](N)CC(C)C)C(=O)N[C@H](C(=O)N[C@@H](Cc1c[nH]cn1)C(=O)N[C@@H](Cc1c[nH]cn1)C(=O)N[C@H](C(=O)NCC(=O)N[C@@H](CC(N)=O)C(=O)N[C@@H](Cc1ccccc1)C(=O)N[C@H](C(=O)N[C@@H](Cc1c[nH]cn1)C(=O)NCC(=O)N[C@@H](Cc1ccccc1)C(=O)N[C@@H](CO)C(=O)N[C@@H](Cc1c[nH]cn1)C(=O)N[C@H](C(=O)N[C@@H](Cc1ccccc1)C(N)=O)C(C)C)C(C)C)C(C)C)[C@@H](C)CC | Enterobacter cloacae | broth microdilution | AR 0136 | pH 7.4 | > 128 µM
CC(C)[C@H](NC(=O)[C@H](CO)NC(=O)[C@H](CCCNC(=N)N)NC(=O)[C@H](CCCNC(=N)N)NC(=O)[C@H](CCCNC(=N)N)NC(=O)[C@H](CCCNC(=N)N)NC(=O)CN)C(=O)N[C@@H](CCC(N)=O)C(=O)N[C@@H](Cc1c[nH]c2ccccc12)C(=O)N[C@@H](CS)C(=O)N[C@@H](C)C(=O)O | Streptococcus mutans | broth microdilution | GS-5 | 24 h, planktonic anaerobic | 48 ± 17.5 µg/mL
CC[C@H](C)[C@H](NC(=O)[C@@H]1CCCN1C(=O)[C@H](CCCCN)NC(=O)[C@@H]1CCCN1C(=O)[C@@H]1CCCN1C(=O)[C@@H](NC(=O)[C@@H]1CCCN1C(=O)[C@H](CCCNC(=N)N)NC(=O)[C@@H]1CCCN1C(=O)[C@H](CCCNC(=N)N)NC(=O)[C@H](Cc1ccc(O)cc1)NC(=O)[C@H](CO)NC(=O)CNC(=O)[C@H](CCCCN)NC(=O)[C@H](CC(=O)O)NC(=O)[C@@H](N)C(C)C)[C@@H](C)O)C(=O)N[C@@H](Cc1ccc(O)cc1)C(=O)N[C@@H](CC(N)=O)C(=O)N[C@@H](CCCNC(=N)N)C(=O)N[C@@H](CC(N)=O)C(=O)O | Salmonella enterica |  | serovar Tennessee | 18 h, 37 °C, 12.5% Mueller-Hinton broth | 0.075 ± 0.018 µM
